Results gathered from unrelated publications.
Compare with care: the assays were run in different laboratories. Numbers after ± are the reported error.

`COc1cc2[nH]c(C)c(-c3ccc(F)cc3F)c(=O)c2cc1Cl` has a kinetic solubility of 2 to 6 µM (pH 7.4).
The kinetic solubility of `O=C(N1CCCCC1)C12CC(c3ccccc3)(C1)C2` is reported as 272 µM (PBS with DMSO; 2 h, pH 7.4, 25 °C).
`CCCCCCCC(=O)c1cc(OC)c(OC)c(OC)c1CC(=O)OCC` gave a kinetic solubility of 14.9 ± 2.6 µM (aqueous buffer; 90 min, pH 7.4, 25 °C, 0.1% DMSO).
The kinetic solubility of `Clc1ccc(COc2cncc(-c3cnn(C4CCNCC4)c3)c2)c(Cl)c1` is reported as 41 µM (phosphate buffer; pH 7.4, last soluble concentration).
`COc1cc2[nH]c(C)c(-c3cncnc3)c(=O)c2cc1Cl` has a kinetic solubility of ≥ 20 µM (pH 7.4).
`O=C(Nc1ccc(Cl)c(Cl)c1)c1cc([N+](=O)[O-])c(F)cc1F` gave a kinetic solubility of < 0.3 µM (phosphate buffer; pH 7.4).
With `COc1cccc(-c2ccc(NC(=O)C3=C(C(=O)O)CCC3)c(F)c2)c1` the kinetic solubility was 91.8 ± 9.6 µM (aqueous buffer; 90 min, pH 7.4, 25 °C, 0.1% DMSO).
`C=C(NC(=O)c1csc(-c2nc3c(cc2O[C@@H]2O[C@H](CO)[C@@H](O)[C@H](O)[C@H]2O)-c2nc(cs2)C(=O)N[C@@H]([C@@H](C)O)C(=O)N/C(=C\C)c2nc(cs2)C(=O)N[C@H]2C[C@H](O)C(=O)OCc4cccc5[nH]c(c(C)c45)C(=O)SC[C@H](NC(=O)c4csc2n4)c2nc-3cs2)n1)C(N)=O` has a kinetic solubility of 0.000596 mg/mL (HPLC; citrate buffer; pH 6.0, 5% DMSO).
With `O=[N+]([O-])c1cc(Cc2ccccc2)cc(/C=N/c2ccc(N3CCOCC3)cc2)c1O` the kinetic solubility was 78.4 µM (PBS; 24 h, pH 7.4, 21 °C, 2.0% DMSO).
`Oc1cccc(-c2nc(N3CCC(c4ccccn4)C3)c3ccccc3n2)c1` (centres unmarked) has a kinetic solubility of 0.001 mg/mL (Japanese Pharmacopoeia disintegration test solution 2; pH 6.8).
For `Cc1ccn2c(Nc3ccc(F)cc3)c(-c3ccccn3)nc2c1`, the kinetic solubility was 0.00038 mg/mL (shake flask HPLC-UV; sodium phosphate buffer; 24 h, pH 7.4, 2% DMSO).
For `O=C(O)c1ccc(-n2cccc2/C=C2/NC(=O)N(c3cccc(Cl)c3)C2=O)cc1`, the kinetic solubility was 83.7 µM (PBS; 24 h, pH 7.4, 21 °C, 2.0% DMSO).
`COC(=O)c1cn(C)c2ccc(-c3ccccc3)cc12` gave a kinetic solubility of 90.5 ± 1.5 µM (aqueous buffer; 90 min, pH 7.4, 25 °C, 0.1% DMSO).
`Fc1cccc(Nc2nc(-c3ccccn3)nc3ccccc23)c1` has a kinetic solubility of 0.001 mg/mL (Japanese Pharmacopoeia disintegration test solution 2; pH 6.8).
For `Cc1ccc(-c2nc3ccccc3s2)cc1NC(=O)c1ccc(N2CCNCC2)c([N+](=O)[O-])c1`, the kinetic solubility was < 1.6 µM (phosphate buffer; pH 7.4).
For `CS(=O)(=O)c1ccc(C(=O)N2CCCCC2)cc1`, the kinetic solubility was 305 µM (PBS; 2 h, pH 7.4, 25 °C).
With `Cc1cc(Cl)c(Cl)cc1NC(=O)c1cc([N+](=O)[O-])c(F)cc1F` the kinetic solubility was < 0.3 µM (phosphate buffer; pH 7.4).
`CC/C=C\C/C=C\C/C=C\C/C=C\C/C=C\C/C=C\CCC(=O)O.Cc1cc(/C=C/C#N)cc(C)c1Nc1ccnc(Nc2ccc(C#N)cc2)n1` has a kinetic solubility of ~150 mg/mL (Labrasol ALF).
With `Cc1ccc(C2CC(=O)N3CN(c4ccc(Br)cc4)CSC3=C2C#N)o1` (centres unmarked) the kinetic solubility was 135 µM (PBS; 24 h, pH 7.4, 21 °C, 2.0% DMSO).
`O=C(Nc1ccc2c(c1)B(O)OC2)Nc1ccc(F)c(C(F)(F)F)c1` has a kinetic solubility of < 0.0016 mg/mL (nephelometry; aqueous buffer).
With `CS(=O)(=O)c1cnc(NS(=O)(=O)c2ccc(N)cc2)nc1.Cl` the kinetic solubility was 391 µM (PBS; 2 h, pH 7.4, 25 °C, 2% DMSO).
For `CCCCCCCCC(=O)c1cc(O)c(O)c(O)c1`, the kinetic solubility was ≥ 100 µM (aqueous buffer; 90 min, pH 7.4, 25 °C, 0.1% DMSO).
For `CCN(CC)CCNC(=O)c1cc(S(C)(=O)=O)cnc1OC`, the kinetic solubility was 393 µM (PBS; 2 h, pH 7.4, 25 °C, 2% DMSO).
`c1ccc(-c2nc(N3CCc4ncccc4C3)c3ccccc3n2)nc1` gave a kinetic solubility of 0.078 mg/mL (Japanese Pharmacopoeia disintegration test solution 2; pH 6.8).
`COc1cc2[nH]c(C)c(-c3ccc(-c4ccccc4)cc3)c(=O)c2cc1Cl` has a kinetic solubility of < 2 µM (pH 7.4).
`c1ccc(OC2CCN(c3nc(-c4ccccn4)nc4ccccc34)C2)cc1` (centres unmarked) gave a kinetic solubility of 0.008 mg/mL (Japanese Pharmacopoeia disintegration test solution 2; pH 6.8).
`COc1cc2[nH]c(C)c(-c3ccc(N4CCN(C)CC4)nc3)c(=O)c2cc1Cl` has a kinetic solubility of ≥ 20 µM (pH 7.4).
`CCOC(=O)C(CCCSC)NC(=O)c1ccc(C2CC2)c(Cc2ccc(F)cc2)n1` (centres unmarked) gave a kinetic solubility of 0.0014 mg/mL (aqueous buffer with DMSO).
`O=C(Nc1cncc(-c2nc3ccccc3o2)c1)c1cc([N+](=O)[O-])c(F)cc1Cl` gave a kinetic solubility of < 1.6 µM (phosphate buffer; pH 7.4).
`Cc1[nH]c(C)c(S(=O)(=O)Nc2ccc(C(F)(F)F)c(Cl)c2)c1C(=O)N(C)C` gave a kinetic solubility of > 100 µM.
For `COCCOCc1ccc(-c2cc3onc(-c4ccccc4)c3c(=O)n2C)cc1`, the kinetic solubility was 44.5 ± 0.2 µM (aqueous buffer; 90 min, pH 7.4, 25 °C, 0.1% DMSO).
For `COc1cnc(NS(=O)(=O)c2ccc(N)cc2)nc1`, the kinetic solubility was 362 µM (PBS; 2 h, pH 7.4, 25 °C).
`COc1cc2[nH]c(C)c(-c3ccc(C)cc3)c(=O)c2cc1Cl` has a kinetic solubility of < 2 µM (pH 7.4).
`O=C(Nc1cccc(Cl)c1)c1cc([N+](=O)[O-])c(F)cc1F` has a kinetic solubility of < 0.3 µM (phosphate buffer; pH 7.4).
`CCc1ccccc1-c1c(C)[nH]c2cc(OC)c(Cl)cc2c1=O` has a kinetic solubility of 2 to 6 µM (pH 7.4).
`c1ccc(CN2CCN(c3nc(-c4ccccn4)nc4ccccc34)CC2)cc1` has a kinetic solubility of 0.085 mg/mL (Japanese Pharmacopoeia disintegration test solution 2; pH 6.8).
The kinetic solubility of `CCC(=O)NS(=O)(=O)c1ccc(-c2c(-c3ccccc3)noc2C)cc1` is reported as ≥ 100 µM (aqueous buffer; 90 min, pH 7.4, 25 °C, 0.1% DMSO).
The kinetic solubility of `Clc1ccc2nc(-c3ccccn3)c(Nc3ccc4c(c3)OCCO4)n2c1` is reported as 0.0758 mg/mL (shake flask HPLC-UV; sodium phosphate buffer; 24 h, pH 2.0, 2% DMSO).
`c1ccc(-c2nc(N3CCC(c4ccccn4)C3)c3ccccc3n2)nc1` (centres unmarked) has a kinetic solubility of 0.088 mg/mL (Japanese Pharmacopoeia disintegration test solution 2; pH 6.8).
With `NS(=O)(=O)c1nnc(NC(=O)CCC2CCC(F)(F)CC2)s1` the kinetic solubility was 197 µM (PBS; pH 7.4).
With `NC(=O)C1CCN(c2nc(-c3ccccn3)nc3ccccc23)C1` (centres unmarked) the kinetic solubility was 0.086 mg/mL (Japanese Pharmacopoeia disintegration test solution 2; pH 6.8).
With `Cc1ncc(Cl)cc1NCc1ccc(C(=O)N[C@@H](CC2CCCC2)C(=O)NC2CC2)s1` the kinetic solubility was 6.9 µM (PBS with 1% DMSO; 18 h, pH 7.4).
With `CC(C)n1c(/C=C/C(O)CC(O)CC(=O)O)c(-c2ccc(F)cc2)c2ccccc21` (centres unmarked) the kinetic solubility was ≥ 100 µM (aqueous buffer; 90 min, pH 7.4, 25 °C, 0.1% DMSO).
`CC(Nc1nc(-c2ccccn2)nc2ccccc12)c1ccccn1` (centres unmarked) gave a kinetic solubility of 0.08 mg/mL (Japanese Pharmacopoeia disintegration test solution 2; pH 6.8).
With `COc1ccc(/C=N\NC(=O)c2cc(O)c(O)c(O)c2)cc1COc1ccc(C(=O)OCC(C)C)cc1` the kinetic solubility was 7.5 µM (PBS; 24 h, pH 7.4, 21 °C, 2.0% DMSO).
For `Cc1ccn2c(NC3CCCC3)c(-c3ccc(N(C)C)cc3)nc2c1`, the kinetic solubility was 0.0669 mg/mL (shake flask HPLC-UV; sodium phosphate buffer; 24 h, pH 2.0, 2% DMSO).
The kinetic solubility of `Cc1cc(Cl)c(Cl)cc1NC(=O)c1cc([N+](=O)[O-])c(F)cc1Cl` is reported as < 1.6 µM (phosphate buffer; pH 7.4).
`COc1cc2[nH]c(C)c(-c3ccc(C=O)cc3)c(=O)c2cc1Cl` has a kinetic solubility of < 2 µM (pH 7.4).
With `Cc1ccc(-c2nc3ccccc3s2)cc1NC(=O)c1cc([N+](=O)[O-])c(NCCN(C)C)cc1Cl` the kinetic solubility was < 1.6 µM (phosphate buffer; pH 7.4).
`COc1cc2[nH]c(C)c(-c3ccc(Oc4ccccc4)cc3)c(=O)c2cc1Cl` has a kinetic solubility of < 2 µM (pH 7.4).

Excerpt of the above:
With `O=[N+]([O-])c1cc(Cc2ccccc2)cc(/C=N/c2ccc(N3CCOCC3)cc2)c1O` the kinetic solubility was 78.4 µM (PBS; 24 h, pH 7.4, 21 °C, 2.0% DMSO).
`c1ccc(CN2CCN(c3nc(-c4ccccn4)nc4ccccc34)CC2)cc1` has a kinetic solubility of 0.085 mg/mL (Japanese Pharmacopoeia disintegration test solution 2; pH 6.8).
The kinetic solubility of `Cc1cc(Cl)c(Cl)cc1NC(=O)c1cc([N+](=O)[O-])c(F)cc1Cl` is reported as < 1.6 µM (phosphate buffer; pH 7.4).
`COc1cc2[nH]c(C)c(-c3ccc(-c4ccccc4)cc3)c(=O)c2cc1Cl` has a kinetic solubility of < 2 µM (pH 7.4).
With `CC(C)n1c(/C=C/C(O)CC(O)CC(=O)O)c(-c2ccc(F)cc2)c2ccccc21` (centres unmarked) the kinetic solubility was ≥ 100 µM (aqueous buffer; 90 min, pH 7.4, 25 °C, 0.1% DMSO).
`O=C(Nc1cncc(-c2nc3ccccc3o2)c1)c1cc([N+](=O)[O-])c(F)cc1Cl` gave a kinetic solubility of < 1.6 µM (phosphate buffer; pH 7.4).
